Values quoted from earlier work as cited in several papers.
Each numbered part shows a few of the values that one paper quotes. ± gives the spread as reported. Values after ≈ are worked out from the molar mass of the structure shown.

Block 1 — cell line: MCF7; technique: microarray; tested at: concentration not given; baseline: DMSO
Structure (SMILES): CCCCCCCCNC(C)C(O)c1ccc(SC(C)C)cc1 (stereo not drawn)
measured | log2 fold change
VEZF1 mRNA | 1.37
WDR45 mRNA | 1.15
SLCO4C1 mRNA | 1.87
ZNF165 mRNA | 2.07

Block 2 — target: dopamine transporter
Compound | IC50
CCN(CC)CCNC(=O)c1cc(Cl)c(N)cc1OC | > 10 µM
Cc1ccccc1N1CCN(CCc2nnc3n2CCCC3)CC1 | > 10 µM
O=C(CCCN1CC=C(n2c(=O)[nH]c3ccccc32)CC1)c1ccc(F)cc1 | > 10 µM

Block 3 — organism: Cryptosporidium parvum; technique: high-throughput screen; tested at: concentration not given
Structure (SMILES) | activity
CCCNC(C)C(=O)Nc1ccccc1C (stereo not drawn) | inactive
Nc1ncnc2c1ncn2[C@@H]1O[C@H](CO)C[C@H]1O | inactive
Cl.O=C(O)/C=C/c1ccc(Cn2ccnc2)cc1 | inactive
COc1ccc(Cl)cc1C(=O)NCCc1ccc(S(=O)(=O)NC(=O)NC2CCCCC2)cc1 | inactive
O=C1c2cccc3c2[C@H](CCC3)CN1[C@@H]1CN2CCC1CC2 | inactive
O=S(=O)(O)CCS | inactive
CN(C)c1nc(N(C)C)nc(N(C)C)n1 | inactive
CC(C[N+](C)(C)C)OC(N)=O (stereo not drawn) | inactive
CC(C)/N=c1\cc2n(-c3ccc(Cl)cc3)c3ccccc3nc-2cc1Nc1ccc(Cl)cc1 | inactive
CC(C)C[C@H](NC(=O)[C@@H](O)[C@H](N)Cc1ccccc1)C(=O)O | inactive
CCCCC(=O)N(Cc1ccc(-c2ccccc2-c2nnn[nH]2)cc1)[C@H](C(=O)O)C(C)C | inactive
C[C@@H]1C[C@H]2[C@@H]3CCC4=CC(=O)C=C[C@]4(C)[C@@]3(F)[C@@H](O)C[C@]2(C)[C@@]1(O)C(=O)CO | inactive
CC(=O)Nc1nnc(S(N)(=O)=O)s1 | inactive
CCN(CC)CCOc1ccc(C(=C(Cl)c2ccccc2)c2ccccc2)cc1 | inactive
Nc1ccn([C@@H]2O[C@H](CO)[C@@H](O)[C@@H]2O)c(=O)n1 | inactive
COC(=O)C1=C(C)NC(C)=C(C(=O)OCC(C)C)C1c1ccccc1[N+](=O)[O-] (stereo not drawn) | inactive
Nc1nc2c(ncn2CCC(CO)CO)c(=O)[nH]1 | inactive
COC(=O)Nc1nc2ccc(C(=O)c3ccccc3)cc2[nH]1 | inactive
Cl.NC1CCN(c2cccc(Cl)n2)CC1 | inactive
CC1=C(CC(=O)O)c2cc(F)ccc2/C1=C\c1ccc([S+](C)[O-])cc1 (stereo not drawn) | inactive
Cc1nc2ccccn2c(=O)c1CCN1CCC(C(=O)c2ccc(F)cc2)CC1 | inactive

Single results of other studies
SMILES | target or system | assay | test system | conditions | scale | measurement | value
CCCCN(CCCC)CC(O)c1cc(Cl)cc2c1-c1ccc(Cl)cc1/C2=C/c1ccc(Cl)cc1 (stereo not drawn) | Plasmodium falciparum | – | Dd2 | – | – | IC50 | 0.0023 ± 0.0005 µM
O=C(O)c1cc(-c2ccc(C3CCNCC3)cc2)c2ccc(-c3ccc(C(F)(F)F)cc3)cc2c1 | EGFR | enzyme activity, Eurofins-Panlabs panel | – | concentration not given | – | IC50 | 4.59 µM
O=NN(CCCl)C(=O)NC1CCCCC1 | – | – | patients, recurrent glioblastoma | dose not given, monotherapy | – | median overall survival | 5.6 months
C[C@H](Cn1cnc2c(N)ncnc21)OCP(=O)(O)O | Human immunodeficiency virus | viral replication | – | – | – | EC50 | 0.05 µg/mL (≈ 0.174 µM)
Cc1ncsc1-c1ccc(CNC(=O)[C@@H]2C[C@@H](O)CN2C(=O)[C@@H](NC(=O)CCCCCOC(=O)CC23C[C@H]4C[C@@H](C2)C[C@@H](C3)C4)C(C)(C)C)cc1 | – | PAMPA | – | – | – | log permeability (Pe) | -6.7
N/C(CC(O)c1cc2c(F)cc(F)cc2c2cc(C(F)(F)F)ccc12)=N\c1ccc(F)cc1 (stereo not drawn) | β-hematin formation | inhibitor | – | NP-40 detergent | – | IC50 | 9.4 ± 0.3 µM
CCC(C)n1ncn(-c2ccc(N3CCN(c4ccc(OCC5COC(Cn6cncn6)(c6ccc(Cl)cc6Cl)O5)cc4)CC3)cc2)c1=O (stereo not drawn) | – | – | human | oral, 200 mg single dose | – | Cmax | 119 ng/mL
CC(C)(C)OC[C@@H]1C(=O)NCCN1C(=O)C[C@H](N)Cc1cc(F)c(F)cc1F | – | – | human | – | – | elimination half-life | 32.9 to 38.8 h
CC1(C)CCC(CN2CCN(c3ccc(C(=O)NS(=O)(=O)c4ccc(NCC5CCOCC5)c([N+](=O)[O-])c4)c(Oc4cnc5[nH]ccc5c4)c3)CC2)=C(c2ccc(Cl)cc2)C1 | – | – | human, fasted | oral | – | absolute bioavailability | 5.4%
O=C(O)C(Cc1ccc2c(c1)oc1ccccc12)NCP(=O)(O)O (stereo not drawn) | neprilysin | inhibitor | – | – | – | IC50 | 2.3 µM
CC(O)C(C)n1ncn(-c2ccc(N3CCN(c4ccc(OCC5COC(Cn6cncn6)(c6ccc(Cl)cc6Cl)O5)cc4)CC3)cc2)c1=O (stereo not drawn) | – | – | – | basic group | – | pKa | 3.7
CC(C)C[C@H](NP(=O)(O)O[C@@H]1O[C@@H](C)[C@H](O)[C@@H](O)[C@H]1O)C(=O)N[C@@H](Cc1c[nH]c2ccccc12)C(=O)O | neprilysin | inhibitor | – | – | – | IC50 | 0.034 µM
CC(C)N(CCCCOCC(=O)NS(C)(=O)=O)c1cnc(-c2ccccc2)c(-c2ccccc2)n1 | – | – | healthy human, feces | – | baseline: dose | fecal excretion | 93%
COc1cc(-c2cn(C3CCc4c(F)cccc4N(CC(F)(F)F)C3=O)nn2)ccc1-n1cnc(C)c1 (stereo not drawn) | gamma-secretase complex (human) | cellular activity | – | – | – | IC50 | < 0.1 µM

Excerpt of the above (block 3):
Structure (SMILES) | activity
COC(=O)Nc1nc2ccc(C(=O)c3ccccc3)cc2[nH]1 | inactive
Nc1ccn([C@@H]2O[C@H](CO)[C@@H](O)[C@@H]2O)c(=O)n1 | inactive
Nc1nc2c(ncn2CCC(CO)CO)c(=O)[nH]1 | inactive
CC(=O)Nc1nnc(S(N)(=O)=O)s1 | inactive
CC(C)/N=c1\cc2n(-c3ccc(Cl)cc3)c3ccccc3nc-2cc1Nc1ccc(Cl)cc1 | inactive
Cc1nc2ccccn2c(=O)c1CCN1CCC(C(=O)c2ccc(F)cc2)CC1 | inactive
